Assay results pooled from the literature.
Protocols differ between the studies behind these lines. ± gives the spread as reported.
Organism: Trypanosoma cruzi

| Compound | test | system | conditions | EC50 |
| --- | --- | --- | --- | --- |
| CCOC(=O)CC1SC(=NN=Cc2ccc(OC)cc2)NC1=O (stereo not shown) | parasite growth | – | 24 h, trypomastigote | 12.7 µM |
| O=C1C=CS(=O)(=O)c2c(Br)cccc21 | intracellular amastigote growth | U-937, Tulahuen, β-galactosidase transfected | 72 h | 354 µM |
| O=C(N[C@H](Cc1c[nH]c2ccccc12)C(=O)Nc1ccncc1)c1ccc(N2CCN(S(=O)(=O)c3ccc(C(F)(F)F)cc3)CC2)cc1F | – | mouse C2C12 myoblasts, CA-I/72 | 72 h | 2.8 ± 3.3 µM |
| N#CSCCOc1ccc2ccccc2c1 | parasite growth | – | intracellular, amastigote | > 10 µM |
| N#Cc1ccc(NCc2cncn2Cc2ccc(-c3ccccc3)cc2)cc1-c1ccccc1 | parasite growth | mouse Fibroblast | intracellular, amastigote | 0.0018 µM |
| CS(=O)(=O)N1CCN(c2ccc(C(=O)N[C@H](Cc3c[nH]c4ccccc34)C(=O)Nc3ccncc3)c(F)c2)CC1 | – | mouse C2C12 myoblasts, CA-I/72 | 72 h | > 10 µM |
| Cn1cncc1[C@@](N)(c1ccc(Cl)cc1)c1ccc2c(c1)c(-c1cccc(Cl)c1)cc(=O)n2C | parasite growth | NIH3T3 | intracellular, amastigote | 0.004 µM |
| O=C(N[C@H](Cc1c[nH]c2ccccc12)C(=O)Nc1ccncc1)c1ccc(N2CCN(S(=O)(=O)C3CC3)CC2)cc1F | – | mouse C2C12 myoblasts, CA-I/72 | 72 h | > 10 µM |
| COC(c1ccc2ccccc2c1)(c1ccc2c(c1)c(-c1cccc(Cl)c1)cc(=O)n2C)c1cncn1C (stereo not shown) | parasite growth | NIH3T3 | intracellular, amastigote | 0.002 µM |
| CCOC(=O)CC1SC(=NN=Cc2ccccc2C)NC1=O (stereo not shown) | parasite growth | – | 24 h, trypomastigote | 12.6 µM |
| CN(C)c1ccc(NCc2cncn2Cc2ccc(-c3ccccc3)cc2)cc1-c1ccccc1 | parasite growth | mouse Fibroblast | intracellular, amastigote | 0.026 µM |
| N#CSCCOc1cccc(Oc2ccccc2F)c1 | amastigote growth | tdTomato labelled | intracellular amastigotes | 7 µM |
| CCOC(=O)CC1SC(=NN=Cc2cccc(Br)c2)NC1=O (stereo not shown) | parasite growth | – | 24 h, trypomastigote | 18.2 µM |
| O=C1C(Cc2ccco2)=CS(=O)(=O)c2ccccc21 | intracellular amastigote growth | U-937, Tulahuen, β-galactosidase transfected | 72 h | 72.9 µM |
| CCOC(=O)CC1SC(=NN=C2CCCc3ccccc32)NC1=O (stereo not shown) | parasite growth | – | 24 h, trypomastigote | 27.9 µM |
| N#CSCCOc1cccc2ccccc12 | parasite growth | – | intracellular, amastigote | > 10 µM |

| Compound | test | system | conditions | EC50 |
| --- | --- | --- | --- | --- |
| c1ccc(-c2ccc(Cn3cncc3CNc3ccc(N4CCCC4)c(-c4ccccc4)c3)cc2)cc1 | parasite growth | mouse Fibroblast | intracellular, amastigote | 0.041 µM |
| N#Cc1ccc(S(=O)(=O)N2CCN(c3ccc(C(=O)N[C@H](Cc4c[nH]c5ccccc45)C(=O)Nc4ccncc4)c(F)c3)CC2)cc1 | – | mouse C2C12 myoblasts, CA-I/72 | 72 h | 0.0026 ± 0.0005 µM |
| O=C1C=CS(=O)(=O)c2ccc(F)cc21 | intracellular amastigote growth | U-937, Tulahuen, β-galactosidase transfected | 72 h | 1210 µM |
| CCOC(=O)CC1SC(=NN=Cc2ccccc2OC)NC1=O (stereo not shown) | parasite growth | – | 24 h, trypomastigote | 24.2 µM |
| O=C(Cn1ccnc1[N+](=O)[O-])NCc1ccccc1 | parasite growth, imaging | U2OS | 72 h, intracellular, amastigote | 2.5 µM |
| CCOC(=O)CC1SC(=NN=Cc2ccccc2)NC1=O (stereo not shown) | parasite growth | – | 24 h, trypomastigote | 33.8 µM |
| O=C1C(Cc2ccc(Cl)cc2)=CS(=O)(=O)c2ccccc21 | intracellular amastigote growth | U-937, Tulahuen, β-galactosidase transfected | 72 h | 62.7 µM |
| CCOC(=O)c1csc(NN=Cc2ccc(OC)cc2)n1 | parasite growth | – | 24 h, trypomastigote | 20.5 µM |
| O=C(c1ccc(NCc2cncn2Cc2ccc(-c3ccccc3)cc2)cc1-c1ccccc1)N1CCCCC1 | parasite growth | mouse Fibroblast | intracellular, amastigote | 0.039 µM |
| O=C1C=CS(=O)(=O)c2cc(Br)ccc21 | intracellular amastigote growth | U-937, Tulahuen, β-galactosidase transfected | 72 h | 824 µM |
| CCOC(=O)CC1SC(=NN=Cc2ccc(Br)cc2)NC1=O (stereo not shown) | parasite growth | – | 24 h, trypomastigote | 8.45 µM |
| O=C1C(Cc2ccccc2Cl)=CS(=O)(=O)c2ccccc21 | intracellular amastigote growth | U-937, Tulahuen, β-galactosidase transfected | 72 h | 229 µM |
| Clc1ccc(NCc2cncn2Cc2ccc(-c3ccccc3)cc2)cc1-c1ccccc1 | parasite growth | mouse Fibroblast | intracellular, amastigote | 0.007 µM |
| O=C1C=CS(=O)(=O)c2c1cccc2-c1cc(C(F)(F)F)cc(C(F)(F)F)c1 | intracellular amastigote growth | U-937, Tulahuen, β-galactosidase transfected | 72 h | 24.3 µM |
| O=C(N[C@H](Cc1c[nH]c2ccccc12)C(=O)Nc1ccncc1)c1ccc(N2CCN(S(=O)(=O)c3cccnc3)CC2)cc1F | – | mouse C2C12 myoblasts, CA-I/72 | 72 h | 2.4 ± 0.8 µM |

Some of these lines once more:
| Compound | test | system | conditions | EC50 |
| --- | --- | --- | --- | --- |
| CCOC(=O)CC1SC(=NN=C2CCCc3ccccc32)NC1=O (stereo not shown) | parasite growth | – | 24 h, trypomastigote | 27.9 µM |
| CCOC(=O)CC1SC(=NN=Cc2ccccc2C)NC1=O (stereo not shown) | parasite growth | – | 24 h, trypomastigote | 12.6 µM |
| O=C1C(Cc2ccc(Cl)cc2)=CS(=O)(=O)c2ccccc21 | intracellular amastigote growth | U-937, Tulahuen, β-galactosidase transfected | 72 h | 62.7 µM |
| COC(c1ccc2ccccc2c1)(c1ccc2c(c1)c(-c1cccc(Cl)c1)cc(=O)n2C)c1cncn1C (stereo not shown) | parasite growth | NIH3T3 | intracellular, amastigote | 0.002 µM |
| CS(=O)(=O)N1CCN(c2ccc(C(=O)N[C@H](Cc3c[nH]c4ccccc34)C(=O)Nc3ccncc3)c(F)c2)CC1 | – | mouse C2C12 myoblasts, CA-I/72 | 72 h | > 10 µM |
